{"data": "Measurements from different studies", "note": "Each numbered part is a random draw from the data of one study; scales do not carry over between parts. Values joined by “and” are separate records of one study, mostly repeats; a detail may differ.", "sequence of UniProt Q99755 (whole entry, looked up)": "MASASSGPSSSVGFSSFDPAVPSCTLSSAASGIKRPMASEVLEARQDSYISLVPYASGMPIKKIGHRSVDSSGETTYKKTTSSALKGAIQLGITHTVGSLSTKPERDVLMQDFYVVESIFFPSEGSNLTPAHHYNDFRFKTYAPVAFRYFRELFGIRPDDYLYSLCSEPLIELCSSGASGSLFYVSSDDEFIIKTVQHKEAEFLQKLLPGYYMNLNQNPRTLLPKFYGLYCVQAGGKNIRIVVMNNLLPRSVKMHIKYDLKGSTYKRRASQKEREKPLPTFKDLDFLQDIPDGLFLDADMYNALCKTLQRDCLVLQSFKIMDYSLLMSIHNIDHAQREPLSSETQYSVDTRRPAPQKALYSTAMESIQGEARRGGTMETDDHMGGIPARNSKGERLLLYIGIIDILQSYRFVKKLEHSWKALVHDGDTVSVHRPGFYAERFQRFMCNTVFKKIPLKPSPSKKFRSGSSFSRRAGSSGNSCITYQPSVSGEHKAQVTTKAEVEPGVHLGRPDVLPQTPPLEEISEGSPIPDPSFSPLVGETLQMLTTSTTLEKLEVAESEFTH", "sequence of UniProt O00444 (whole entry, looked up)": "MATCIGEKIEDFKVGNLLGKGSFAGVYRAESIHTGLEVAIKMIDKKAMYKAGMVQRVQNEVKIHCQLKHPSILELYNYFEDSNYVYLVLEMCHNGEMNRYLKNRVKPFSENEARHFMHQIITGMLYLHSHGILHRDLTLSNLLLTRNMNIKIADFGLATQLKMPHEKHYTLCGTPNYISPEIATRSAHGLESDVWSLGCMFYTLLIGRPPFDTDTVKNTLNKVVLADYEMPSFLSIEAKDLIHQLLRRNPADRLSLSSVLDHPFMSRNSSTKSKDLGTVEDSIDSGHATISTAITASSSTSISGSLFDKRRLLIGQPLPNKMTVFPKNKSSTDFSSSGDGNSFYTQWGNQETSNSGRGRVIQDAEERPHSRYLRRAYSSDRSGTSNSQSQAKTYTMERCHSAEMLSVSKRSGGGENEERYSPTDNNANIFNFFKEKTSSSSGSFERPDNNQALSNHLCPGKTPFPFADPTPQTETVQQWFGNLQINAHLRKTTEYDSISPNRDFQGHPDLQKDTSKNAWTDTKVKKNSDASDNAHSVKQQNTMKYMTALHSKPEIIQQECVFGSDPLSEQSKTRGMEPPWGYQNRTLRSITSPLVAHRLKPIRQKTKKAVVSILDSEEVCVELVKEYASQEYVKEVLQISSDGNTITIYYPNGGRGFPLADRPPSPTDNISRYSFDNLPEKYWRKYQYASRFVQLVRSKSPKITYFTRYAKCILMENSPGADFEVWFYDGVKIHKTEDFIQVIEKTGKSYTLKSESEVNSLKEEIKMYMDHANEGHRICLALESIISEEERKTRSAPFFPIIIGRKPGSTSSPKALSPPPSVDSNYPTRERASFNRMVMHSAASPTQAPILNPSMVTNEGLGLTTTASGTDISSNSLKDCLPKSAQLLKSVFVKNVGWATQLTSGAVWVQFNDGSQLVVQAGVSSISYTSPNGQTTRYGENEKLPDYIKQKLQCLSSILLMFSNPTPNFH", "sequence of UniProt Q8IVH8 (whole entry, looked up)": "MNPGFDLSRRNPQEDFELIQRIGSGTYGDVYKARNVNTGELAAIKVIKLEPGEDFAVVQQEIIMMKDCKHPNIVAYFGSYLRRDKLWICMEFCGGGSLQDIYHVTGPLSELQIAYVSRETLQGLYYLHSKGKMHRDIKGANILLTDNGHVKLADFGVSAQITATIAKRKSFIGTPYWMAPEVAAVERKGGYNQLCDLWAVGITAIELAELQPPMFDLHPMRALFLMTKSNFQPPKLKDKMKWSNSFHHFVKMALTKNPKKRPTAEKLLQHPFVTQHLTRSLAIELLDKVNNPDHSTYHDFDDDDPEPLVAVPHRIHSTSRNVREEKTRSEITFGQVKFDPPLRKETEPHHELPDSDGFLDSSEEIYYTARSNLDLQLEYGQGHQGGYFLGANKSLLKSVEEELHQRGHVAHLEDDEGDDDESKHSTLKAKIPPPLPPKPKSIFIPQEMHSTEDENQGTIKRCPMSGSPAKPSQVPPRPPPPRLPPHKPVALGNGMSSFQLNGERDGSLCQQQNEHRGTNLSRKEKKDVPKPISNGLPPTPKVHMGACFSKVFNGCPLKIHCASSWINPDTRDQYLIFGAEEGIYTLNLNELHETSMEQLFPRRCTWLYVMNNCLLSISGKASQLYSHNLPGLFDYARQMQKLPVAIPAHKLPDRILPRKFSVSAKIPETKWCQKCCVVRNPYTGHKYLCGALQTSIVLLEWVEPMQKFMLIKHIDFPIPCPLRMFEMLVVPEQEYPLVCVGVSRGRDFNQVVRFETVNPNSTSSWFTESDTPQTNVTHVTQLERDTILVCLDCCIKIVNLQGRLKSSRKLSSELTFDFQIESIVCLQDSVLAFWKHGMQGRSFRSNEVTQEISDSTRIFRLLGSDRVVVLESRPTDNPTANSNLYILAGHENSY"}
{"data": "Series 1", "target": "DNA polymerase theta, ATPase domain (POLQ, Homo sapiens, UniProt O75417)", "observed": "enzyme activity", "action": "inhibitor", "tested at": "77 µM", "reference": "untreated", "sequence of UniProt O75417 (whole entry, unmodified, looked up)": "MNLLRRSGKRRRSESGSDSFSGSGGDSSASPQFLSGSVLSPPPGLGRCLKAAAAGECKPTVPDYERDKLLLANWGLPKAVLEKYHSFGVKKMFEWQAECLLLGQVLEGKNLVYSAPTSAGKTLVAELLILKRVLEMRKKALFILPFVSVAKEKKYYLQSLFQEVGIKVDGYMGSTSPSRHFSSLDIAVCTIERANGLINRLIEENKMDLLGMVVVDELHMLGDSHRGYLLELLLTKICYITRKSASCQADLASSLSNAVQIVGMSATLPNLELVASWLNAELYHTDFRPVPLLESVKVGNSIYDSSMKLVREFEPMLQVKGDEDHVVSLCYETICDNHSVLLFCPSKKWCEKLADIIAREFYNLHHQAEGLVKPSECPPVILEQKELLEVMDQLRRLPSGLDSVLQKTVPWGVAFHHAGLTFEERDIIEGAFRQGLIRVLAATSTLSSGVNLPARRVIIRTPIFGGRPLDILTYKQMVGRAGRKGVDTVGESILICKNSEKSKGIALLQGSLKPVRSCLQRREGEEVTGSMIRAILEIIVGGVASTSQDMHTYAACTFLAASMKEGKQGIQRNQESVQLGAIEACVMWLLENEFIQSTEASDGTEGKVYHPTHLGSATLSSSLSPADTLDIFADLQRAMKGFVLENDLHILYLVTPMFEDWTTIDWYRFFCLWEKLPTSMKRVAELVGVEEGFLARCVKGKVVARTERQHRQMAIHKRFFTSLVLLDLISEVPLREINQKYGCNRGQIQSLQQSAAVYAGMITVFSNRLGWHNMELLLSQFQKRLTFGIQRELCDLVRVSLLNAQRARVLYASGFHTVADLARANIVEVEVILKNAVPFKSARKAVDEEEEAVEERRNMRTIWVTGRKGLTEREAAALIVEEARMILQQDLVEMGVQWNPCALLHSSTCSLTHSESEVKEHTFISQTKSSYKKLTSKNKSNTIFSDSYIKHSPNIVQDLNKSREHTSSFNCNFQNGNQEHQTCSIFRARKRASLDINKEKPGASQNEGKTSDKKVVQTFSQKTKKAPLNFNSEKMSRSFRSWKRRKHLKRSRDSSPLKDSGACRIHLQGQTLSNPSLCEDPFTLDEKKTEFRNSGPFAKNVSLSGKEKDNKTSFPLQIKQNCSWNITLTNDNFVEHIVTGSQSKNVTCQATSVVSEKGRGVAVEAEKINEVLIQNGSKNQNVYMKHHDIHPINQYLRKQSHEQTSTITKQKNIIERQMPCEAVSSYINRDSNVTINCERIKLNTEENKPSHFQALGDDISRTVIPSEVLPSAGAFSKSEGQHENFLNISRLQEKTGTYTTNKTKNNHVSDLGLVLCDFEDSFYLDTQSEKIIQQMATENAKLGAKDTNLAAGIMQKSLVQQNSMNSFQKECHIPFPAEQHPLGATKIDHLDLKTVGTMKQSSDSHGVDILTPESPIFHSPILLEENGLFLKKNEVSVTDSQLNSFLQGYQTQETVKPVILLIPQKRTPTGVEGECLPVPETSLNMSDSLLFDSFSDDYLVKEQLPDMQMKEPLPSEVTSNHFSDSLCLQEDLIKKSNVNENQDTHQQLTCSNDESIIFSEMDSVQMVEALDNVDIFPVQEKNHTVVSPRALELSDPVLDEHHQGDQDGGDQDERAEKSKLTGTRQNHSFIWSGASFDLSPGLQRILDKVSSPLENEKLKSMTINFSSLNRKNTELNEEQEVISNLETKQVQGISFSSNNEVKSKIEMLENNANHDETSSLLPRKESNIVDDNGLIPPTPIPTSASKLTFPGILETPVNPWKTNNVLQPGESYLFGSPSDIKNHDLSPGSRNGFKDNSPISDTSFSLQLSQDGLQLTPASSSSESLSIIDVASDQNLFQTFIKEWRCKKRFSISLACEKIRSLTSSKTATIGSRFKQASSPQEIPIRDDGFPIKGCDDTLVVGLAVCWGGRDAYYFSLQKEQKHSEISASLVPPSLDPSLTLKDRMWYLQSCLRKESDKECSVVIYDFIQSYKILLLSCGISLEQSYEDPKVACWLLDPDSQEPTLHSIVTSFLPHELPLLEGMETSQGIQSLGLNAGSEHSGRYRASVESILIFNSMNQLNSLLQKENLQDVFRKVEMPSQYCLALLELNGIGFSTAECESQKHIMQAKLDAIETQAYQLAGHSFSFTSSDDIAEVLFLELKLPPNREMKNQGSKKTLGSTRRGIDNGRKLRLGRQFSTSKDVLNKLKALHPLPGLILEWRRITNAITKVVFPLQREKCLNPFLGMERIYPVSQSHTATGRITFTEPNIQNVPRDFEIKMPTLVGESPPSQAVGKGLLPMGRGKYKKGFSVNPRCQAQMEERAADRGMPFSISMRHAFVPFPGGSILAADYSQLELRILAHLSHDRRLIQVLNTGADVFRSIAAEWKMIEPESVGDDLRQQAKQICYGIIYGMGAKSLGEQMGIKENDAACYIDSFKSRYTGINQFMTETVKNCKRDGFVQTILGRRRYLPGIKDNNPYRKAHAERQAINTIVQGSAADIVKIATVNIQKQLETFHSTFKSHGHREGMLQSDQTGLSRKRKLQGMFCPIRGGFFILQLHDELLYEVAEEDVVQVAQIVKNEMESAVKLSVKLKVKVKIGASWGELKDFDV"}
{"Structure (SMILES)": "C#C[C@]1(O)CC[C@H]2[C@@H]3CCC4=CC(=O)CC[C@@H]4[C@H]3CC[C@@]21CC", "remaining activity": "103%"}
{"Structure (SMILES)": "O=c1cc(-c2ccccc2)oc2cc(O)cc(O)c12", "remaining activity": "89.4% and 86.6%"}
{"Structure (SMILES)": "Cc1cc(CC(=O)O)n(C)c1C(=O)c1ccc(Cl)cc1", "remaining activity": "101%"}
{"Structure (SMILES)": "O=c1[nH]c(=O)c2nc3ccccc3nc2[nH]1", "remaining activity": "95.6%"}
{"data": "Series 2", "SMILES": "CC(C)n1cnc(-c2ccc(F)cc2)c1-c1ncc(C(=O)Nc2ccc(N3CCN(C)CC3)cc2)[nH]1"}
{"item": "skin papilloma", "host": "idiopathic pulmonary fibrosis patients", "dose": "60 mg once daily", "patients with TEAE [%]": 0}
{"technique": "phase 2a trial", "host": "idiopathic pulmonary fibrosis patients", "route": "oral", "dose": "60 mg once daily", "setting": "urine red cells, grade 2", "patients with TEAE [%]": 0}
{"technique": "phase 2a trial", "host": "patients with idiopathic pulmonary fibrosis", "dose": "dose not given", "setting": "free thyroxine decreased, grade 3, all arms", "patients with TEAE [%]": 0}
{"technique": "phase 2a trial", "host": "idiopathic pulmonary fibrosis patients", "route": "oral", "dose": "dose not given", "setting": "GLDH increased, grade 2, all arms", "patients with TEAE [%]": 1}
{"data": "Series 3", "SMILES": "COc1ccc2[nH]c3c4[nH]c5ccc(OC)cc5c4c4c(c3c2c1)C(=O)NC4=O", "observed": "binding", "tested at": "1 µM"}
{"target": "HIPK2 (Homo sapiens, UniProt Q9H2X6)", "technique": "competition with immobilised ligand", "remaining binding [%]": 64}
{"target": "EGFR (Homo sapiens, UniProt P00533, del746-750)", "remaining binding [%]": 20}
{"target": "PLK4 (Homo sapiens, UniProt O00444)", "technique": "competition with immobilised ligand", "remaining binding [%]": 1.4}
{"target": "SYK (Homo sapiens, UniProt P43405)", "technique": "competition with immobilised ligand", "remaining binding [%]": 73}
{"target": "MAP3K19 (Homo sapiens, UniProt Q56UN5)", "technique": "competition with immobilised ligand", "remaining binding [%]": 0}
{"target": "COQ8A (Homo sapiens, UniProt Q8NI60)", "technique": "competition with immobilised ligand", "remaining binding [%]": 100}
{"data": "Series 4", "SMILES": "CS(=O)(=O)NCC[C@H](NC(=O)c1cncc2c1cnn2-c1ccc(F)cc1)c1ccnc(S(C)(=O)=O)c1", "tested at": "1 µM"}
{"target": "CDK11B (Homo sapiens, UniProt P21127)", "observed": "cell-free assay", "technique": "competition with immobilised ligand", "remaining binding": "100%"}
{"target": "IGF1R (Homo sapiens, UniProt P08069)", "observed": "cell-free assay", "technique": "competition with immobilised ligand", "remaining binding": "100%"}
{"target": "LIM domain kinase 1 (LIMK1, Homo sapiens, UniProt P53667)", "observed": "cell-free assay", "technique": "competition with immobilised ligand", "remaining binding": "100%"}
{"target": "TEK (Homo sapiens, UniProt Q02763)", "observed": "cell-free assay", "technique": "competition with immobilised ligand", "remaining binding": "84%"}
{"target": "GSK3A (Homo sapiens, UniProt P49840)", "observed": "cell-free assay", "technique": "competition with immobilised ligand", "remaining binding": "100%"}
{"target": "MAPK3 (Homo sapiens, UniProt P27361)", "observed": "cell-free assay", "technique": "competition with immobilised ligand", "remaining binding": "97%"}
{"target": "LRRK2 (Homo sapiens, UniProt Q5S007, G2019S)", "observed": "cell-free assay", "technique": "competition with immobilised ligand", "remaining binding": "92%"}
{"target": "GRK2 (Homo sapiens, UniProt P25098)", "observed": "cell-free assay", "technique": "competition with immobilised ligand", "remaining binding": "100%"}
{"target": "PIM1 (Homo sapiens, UniProt P11309)", "observed": "cell-free assay", "technique": "competition with immobilised ligand", "remaining binding": "96%"}
{"target": "PAK5 (Homo sapiens, UniProt Q9P286)", "observed": "cell-free assay", "technique": "competition with immobilised ligand", "remaining binding": "99%"}
{"target": "STK38L (Homo sapiens, UniProt Q9Y2H1)", "observed": "binding", "technique": "competition with immobilised ligand", "remaining binding": "50%"}
{"target": "MATK (Homo sapiens, UniProt P42679)", "observed": "cell-free assay", "technique": "competition with immobilised ligand", "remaining binding": "100%"}
{"target": "CSNK2A1 (Homo sapiens, UniProt P68400)", "observed": "cell-free assay", "technique": "competition with immobilised ligand", "remaining binding": "100%"}
{"target": "PNCK (Homo sapiens, UniProt Q6P2M8)", "observed": "cell-free assay", "technique": "competition with immobilised ligand", "remaining binding": "85%"}
{"target": "PIP5K1A (Homo sapiens, UniProt Q99755)", "observed": "cell-free assay", "technique": "competition with immobilised ligand", "remaining binding": "100%"}
{"target": "PRPF4B (Homo sapiens, UniProt Q13523)", "observed": "cell-free assay", "technique": "competition with immobilised ligand", "remaining binding": "69%"}
{"target": "TEC (Homo sapiens, UniProt P42680)", "observed": "binding", "technique": "competition with immobilised ligand", "remaining binding": "96%"}
{"target": "BUB1 (Homo sapiens, UniProt O43683)", "observed": "cell-free assay", "technique": "competition with immobilised ligand", "remaining binding": "100%"}
{"target": "PI4KB (Homo sapiens, UniProt Q9UBF8)", "observed": "cell-free assay", "technique": "competition with immobilised ligand", "remaining binding": "100%"}
{"target": "PLK3 (Homo sapiens, UniProt Q9H4B4)", "observed": "cell-free assay", "technique": "competition with immobilised ligand", "remaining binding": "100%"}
{"target": "PKMYT1 (Homo sapiens, UniProt Q99640)", "observed": "cell-free assay", "technique": "competition with immobilised ligand", "remaining binding": "84%"}
{"target": "RIPK2 (Homo sapiens, UniProt O43353)", "observed": "cell-free assay", "technique": "competition with immobilised ligand", "remaining binding": "100%"}
{"target": "PTK2B (Homo sapiens, UniProt Q14289)", "observed": "cell-free assay", "technique": "competition with immobilised ligand", "remaining binding": "84%"}
{"target": "Tyrosine-protein kinase ABL1, phosphorylated (ABL1, Homo sapiens, UniProt P00519, F317I)", "observed": "binding", "remaining binding": "94%"}
{"target": "MAP4K3 (Homo sapiens, UniProt Q8IVH8)", "observed": "cell-free assay", "technique": "competition with immobilised ligand", "remaining binding": "90%"}
{"data": "Series 5", "cell line": "mouse MPNST tumor cells", "technique": "high-content immunofluorescence imaging", "item": "nuclear SOX9", "tested at": "10 µM", "time": "12 h", "setting": "mean of 2 replicates", "reference": "DMSO control", "direction": "higher = more nuclear SOX9"}
{"Compound": "CSc1ccc(C(=O)NC2CCCCC2NC(=O)CNC(=O)c2cc(C(F)(F)F)ccc2NC(=O)NC(C)C)cc1 (stereo not drawn)", "nuclear SOX9 intensity": "117 % of DMSO"}
{"Compound": "CN(N=O)C(=O)NC1C(O)OC(CO)C(O)C1O (stereo not drawn)", "nuclear SOX9 intensity": "91.4 % of DMSO"}
{"Compound": "Cc1nc2n(c(=O)c1CCN1CCC(c3noc4cc(F)ccc34)CC1)CCCC2", "nuclear SOX9 intensity": "95.2 % of DMSO and 94.4 % of DMSO"}
{"Compound": "C[C@H](N[C@@H](CCc1ccccc1)C(=O)O)C(=O)N1CCC[C@H]1C(=O)O", "nuclear SOX9 intensity": "92 % of DMSO and 100 % of DMSO"}
{"Compound": "O=C(Nc1nncs1)c1cccnc1", "nuclear SOX9 intensity": "102 % of DMSO"}
{"Compound": "O=C(CCCCC(=O)Nc1c(I)cc(I)c(C(=O)O)c1I)Nc1c(I)cc(I)c(C(=O)O)c1I", "nuclear SOX9 intensity": "95.2 % of DMSO"}
{"Compound": "CCN(CC)C(C)CN1c2ccccc2Sc2ccccc21 (stereo not drawn)", "nuclear SOX9 intensity": "111 % of DMSO"}
{"data": "Series 6", "organism": "Sarcocystis neurona", "observed": "parasite growth", "tested at": "concentration not given", "setting": "first screen", "reference": "untreated"}
{"SMILES": "CCOC(=O)c1ccc(OC(=O)CCCCCN=C(N)N)cc1.CS(=O)(=O)O", "log2 fold change": -0.15}
{"SMILES": "O=C(O)c1cc2ccccc2c(Cc2c(O)c(C(=O)O)cc3ccccc23)c1O.OCCOCCN1CCN(C(c2ccccc2)c2ccc(Cl)cc2)CC1", "log2 fold change": 0.21}
{"SMILES": "Cl.Cn1c(NCCN(CCO)CCCc2ccc([N+](=O)[O-])cc2)cc(=O)n(C)c1=O", "log2 fold change": -0.07}
{"SMILES": "Cl.c1ccc2c(c1)CCCC2C1=NCCN1 (stereo not drawn)", "log2 fold change": 0.14}
{"SMILES": "CN(Cc1cnc2nc(N)nc(N)c2n1)c1ccc(C(=O)N[C@@H](CCC(=O)O)C(=O)O)cc1.O", "log2 fold change": -0.07}
{"note": "Repeated from above (series 4):"}
{"target": "RIPK2 (Homo sapiens, UniProt O43353)", "observed": "cell-free assay", "technique": "competition with immobilised ligand", "remaining binding": "100%"}
{"target": "TEK (Homo sapiens, UniProt Q02763)", "observed": "cell-free assay", "technique": "competition with immobilised ligand", "remaining binding": "84%"}
{"target": "LRRK2 (Homo sapiens, UniProt Q5S007, G2019S)", "observed": "cell-free assay", "technique": "competition with immobilised ligand", "remaining binding": "92%"}
{"target": "PKMYT1 (Homo sapiens, UniProt Q99640)", "observed": "cell-free assay", "technique": "competition with immobilised ligand", "remaining binding": "84%"}
{"target": "PLK3 (Homo sapiens, UniProt Q9H4B4)", "observed": "cell-free assay", "technique": "competition with immobilised ligand", "remaining binding": "100%"}
